Experimental data pooled from the literature.
Values joined by “and” are separate records of one study, mostly repeats; a detail may differ. ± marks the error that the study gave.
BCL2L1: Bcl-2-like protein 1 (BCL2L1, Homo sapiens, UniProt Q07817)
Sequence of UniProt Q07817 (whole entry, looked up): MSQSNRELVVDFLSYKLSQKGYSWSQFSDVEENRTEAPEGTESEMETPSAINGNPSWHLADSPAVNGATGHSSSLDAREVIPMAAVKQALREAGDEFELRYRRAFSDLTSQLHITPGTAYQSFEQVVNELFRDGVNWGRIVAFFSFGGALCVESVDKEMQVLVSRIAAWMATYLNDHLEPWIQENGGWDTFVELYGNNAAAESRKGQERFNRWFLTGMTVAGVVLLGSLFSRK
Ribonucleoside-diphosphate reductase large subunit: Ribonucleoside-diphosphate reductase large subunit (Homo sapiens, UniProt P23921)
Sequence of UniProt P23921 (whole entry, looked up): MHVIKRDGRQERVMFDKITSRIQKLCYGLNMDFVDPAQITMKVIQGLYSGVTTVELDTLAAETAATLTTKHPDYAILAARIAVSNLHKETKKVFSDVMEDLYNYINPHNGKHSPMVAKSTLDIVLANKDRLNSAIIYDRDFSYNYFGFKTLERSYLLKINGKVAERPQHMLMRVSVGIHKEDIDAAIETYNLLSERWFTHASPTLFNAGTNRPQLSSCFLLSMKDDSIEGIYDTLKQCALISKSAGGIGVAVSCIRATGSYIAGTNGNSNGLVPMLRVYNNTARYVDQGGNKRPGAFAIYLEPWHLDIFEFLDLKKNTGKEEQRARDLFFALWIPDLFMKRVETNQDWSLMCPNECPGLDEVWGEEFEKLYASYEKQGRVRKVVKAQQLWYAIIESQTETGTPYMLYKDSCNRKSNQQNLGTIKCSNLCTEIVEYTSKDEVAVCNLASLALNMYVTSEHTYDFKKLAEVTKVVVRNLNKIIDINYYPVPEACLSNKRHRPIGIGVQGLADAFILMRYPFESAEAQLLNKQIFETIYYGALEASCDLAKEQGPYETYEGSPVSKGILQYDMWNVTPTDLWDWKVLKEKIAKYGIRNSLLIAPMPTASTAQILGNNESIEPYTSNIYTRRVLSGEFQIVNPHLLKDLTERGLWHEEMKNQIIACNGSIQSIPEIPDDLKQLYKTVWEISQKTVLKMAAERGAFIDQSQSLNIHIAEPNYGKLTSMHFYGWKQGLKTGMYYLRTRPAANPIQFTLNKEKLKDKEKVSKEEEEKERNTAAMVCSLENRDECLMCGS
B1: calmodulin C-domain; chain MKEQDSEEELIEAFKVFDRDGNGLISAAELRHVMTNLGEKLTDDEVDEMIREADIDGDGHINYEEFVRMMVSK
Sequence of UniProt Q60603 (whole entry, looked up): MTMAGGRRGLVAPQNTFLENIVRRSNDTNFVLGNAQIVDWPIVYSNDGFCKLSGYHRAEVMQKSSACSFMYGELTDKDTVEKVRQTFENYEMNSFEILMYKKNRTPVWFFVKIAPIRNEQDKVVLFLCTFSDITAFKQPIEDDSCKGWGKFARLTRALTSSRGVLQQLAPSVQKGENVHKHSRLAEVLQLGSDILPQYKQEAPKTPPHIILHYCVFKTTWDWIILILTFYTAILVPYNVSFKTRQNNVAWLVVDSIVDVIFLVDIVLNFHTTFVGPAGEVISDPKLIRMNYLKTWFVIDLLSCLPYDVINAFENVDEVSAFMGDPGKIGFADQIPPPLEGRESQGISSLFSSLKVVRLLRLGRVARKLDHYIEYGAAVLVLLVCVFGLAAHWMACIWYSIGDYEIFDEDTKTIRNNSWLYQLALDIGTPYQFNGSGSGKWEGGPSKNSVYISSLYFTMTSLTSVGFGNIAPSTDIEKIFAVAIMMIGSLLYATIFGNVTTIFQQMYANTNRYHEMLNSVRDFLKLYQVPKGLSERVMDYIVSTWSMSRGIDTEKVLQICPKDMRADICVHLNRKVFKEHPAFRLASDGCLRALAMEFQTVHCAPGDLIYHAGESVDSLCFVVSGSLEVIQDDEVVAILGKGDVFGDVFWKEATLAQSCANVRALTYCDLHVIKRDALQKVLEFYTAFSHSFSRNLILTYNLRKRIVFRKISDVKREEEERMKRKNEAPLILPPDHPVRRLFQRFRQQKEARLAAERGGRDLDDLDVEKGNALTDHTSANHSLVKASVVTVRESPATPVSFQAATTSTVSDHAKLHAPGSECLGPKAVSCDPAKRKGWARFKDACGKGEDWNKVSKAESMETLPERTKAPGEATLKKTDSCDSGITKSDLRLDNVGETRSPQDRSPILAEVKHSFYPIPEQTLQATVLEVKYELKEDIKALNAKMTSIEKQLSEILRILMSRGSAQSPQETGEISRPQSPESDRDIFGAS
Sequence of UniProt Q53H96 (whole entry, looked up): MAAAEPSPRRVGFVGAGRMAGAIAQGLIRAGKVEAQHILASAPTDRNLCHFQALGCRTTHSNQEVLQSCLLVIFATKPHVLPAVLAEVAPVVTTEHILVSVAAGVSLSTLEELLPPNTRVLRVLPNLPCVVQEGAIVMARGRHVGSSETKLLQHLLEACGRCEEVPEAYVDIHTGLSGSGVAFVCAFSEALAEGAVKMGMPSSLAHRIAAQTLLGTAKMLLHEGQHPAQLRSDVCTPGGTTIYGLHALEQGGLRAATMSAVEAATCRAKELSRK
Sequence of UniProt P0DMS8 (whole entry, looked up): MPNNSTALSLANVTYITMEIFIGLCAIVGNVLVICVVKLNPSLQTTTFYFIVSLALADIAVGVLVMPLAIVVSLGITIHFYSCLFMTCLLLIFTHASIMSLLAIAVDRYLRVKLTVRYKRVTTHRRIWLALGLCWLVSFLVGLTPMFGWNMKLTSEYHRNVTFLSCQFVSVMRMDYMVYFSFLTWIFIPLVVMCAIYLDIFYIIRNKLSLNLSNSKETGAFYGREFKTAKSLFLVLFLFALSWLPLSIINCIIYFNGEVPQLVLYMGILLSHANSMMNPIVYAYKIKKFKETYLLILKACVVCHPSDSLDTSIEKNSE
Sequence of UniProt Q15782 (whole entry, looked up): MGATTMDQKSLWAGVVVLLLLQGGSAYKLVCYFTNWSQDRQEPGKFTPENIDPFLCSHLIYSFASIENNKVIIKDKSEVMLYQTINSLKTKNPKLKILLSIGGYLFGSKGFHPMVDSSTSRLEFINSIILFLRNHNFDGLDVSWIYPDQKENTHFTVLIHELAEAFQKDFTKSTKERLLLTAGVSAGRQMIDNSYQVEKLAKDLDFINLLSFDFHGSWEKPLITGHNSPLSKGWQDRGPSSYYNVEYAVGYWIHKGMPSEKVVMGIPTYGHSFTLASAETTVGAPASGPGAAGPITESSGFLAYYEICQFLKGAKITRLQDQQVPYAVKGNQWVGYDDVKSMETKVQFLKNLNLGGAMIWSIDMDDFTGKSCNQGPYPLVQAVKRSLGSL
Sequence of UniProt P0CG47 (1-75, looked up): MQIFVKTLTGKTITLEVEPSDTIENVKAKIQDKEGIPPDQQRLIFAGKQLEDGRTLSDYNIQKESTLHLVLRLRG
Sequence of UniProt P06768 (whole entry, looked up): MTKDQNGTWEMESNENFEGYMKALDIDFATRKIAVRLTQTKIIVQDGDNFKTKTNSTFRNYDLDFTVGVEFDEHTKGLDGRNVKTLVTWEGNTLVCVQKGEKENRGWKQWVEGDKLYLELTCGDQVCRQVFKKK
Sequence of UniProt Q8JGN5 (whole entry, looked up): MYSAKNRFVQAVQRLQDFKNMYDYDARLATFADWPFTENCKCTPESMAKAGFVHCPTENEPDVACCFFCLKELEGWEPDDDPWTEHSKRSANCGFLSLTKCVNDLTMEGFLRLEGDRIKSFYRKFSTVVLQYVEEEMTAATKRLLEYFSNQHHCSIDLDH
Sequence of UniProt P15090 (whole entry, looked up): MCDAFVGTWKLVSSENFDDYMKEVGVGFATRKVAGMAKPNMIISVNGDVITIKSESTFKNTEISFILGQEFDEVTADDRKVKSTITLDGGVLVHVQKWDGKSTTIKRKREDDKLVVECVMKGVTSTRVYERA
Sequence of UniProt O15530 (whole entry, unmodified, looked up): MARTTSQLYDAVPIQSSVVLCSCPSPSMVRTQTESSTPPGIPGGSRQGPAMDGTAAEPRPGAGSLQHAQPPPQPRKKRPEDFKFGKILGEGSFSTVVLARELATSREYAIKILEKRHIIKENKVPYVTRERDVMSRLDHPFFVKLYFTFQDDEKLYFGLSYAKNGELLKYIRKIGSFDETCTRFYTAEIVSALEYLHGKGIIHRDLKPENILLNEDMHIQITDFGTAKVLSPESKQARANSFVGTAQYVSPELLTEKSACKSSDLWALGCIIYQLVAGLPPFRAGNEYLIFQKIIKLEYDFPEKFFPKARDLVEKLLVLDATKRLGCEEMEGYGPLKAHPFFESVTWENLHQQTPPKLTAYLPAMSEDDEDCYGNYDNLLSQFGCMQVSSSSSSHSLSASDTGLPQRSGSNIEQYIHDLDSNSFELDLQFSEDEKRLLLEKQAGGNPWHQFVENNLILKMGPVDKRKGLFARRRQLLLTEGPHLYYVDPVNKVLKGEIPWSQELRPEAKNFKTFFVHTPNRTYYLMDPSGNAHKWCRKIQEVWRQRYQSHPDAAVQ
Sequence of UniProt P02769 (whole entry, looked up): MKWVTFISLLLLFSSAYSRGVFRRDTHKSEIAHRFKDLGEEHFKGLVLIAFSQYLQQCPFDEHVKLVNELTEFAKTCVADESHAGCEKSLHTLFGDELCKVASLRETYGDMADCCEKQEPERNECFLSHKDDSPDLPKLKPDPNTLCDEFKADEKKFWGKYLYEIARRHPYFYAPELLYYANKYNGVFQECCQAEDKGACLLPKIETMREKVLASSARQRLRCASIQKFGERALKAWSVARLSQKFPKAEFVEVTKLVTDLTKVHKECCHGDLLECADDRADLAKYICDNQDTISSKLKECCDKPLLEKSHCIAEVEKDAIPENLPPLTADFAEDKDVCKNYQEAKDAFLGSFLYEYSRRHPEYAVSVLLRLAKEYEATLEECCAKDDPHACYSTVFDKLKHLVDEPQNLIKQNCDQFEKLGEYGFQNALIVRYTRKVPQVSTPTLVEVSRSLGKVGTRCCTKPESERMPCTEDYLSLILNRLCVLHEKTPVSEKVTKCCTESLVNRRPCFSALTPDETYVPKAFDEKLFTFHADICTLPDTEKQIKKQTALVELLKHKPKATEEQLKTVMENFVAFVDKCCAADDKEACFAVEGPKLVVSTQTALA

Molecule	target	test	system	conditions	Kd
CC(=O)N[C@@H](Cc1c[nH]c2ccccc12)C(=O)N[C@@H](CCCCN)C(=O)N[C@@H](CCCCN)C(=O)N[C@@H](CC(C)C)C(=O)N[C@@H](CC(C)C)C(=O)N[C@@H](CCCCN)C(=O)N[C@@H](CC(C)C)C(=O)N[C@@H](CC(C)C)C(=O)N[C@@H](CCCCN)C(=O)N[C@@H](CCCCN)C(=O)N[C@@H](CC(C)C)C(=O)N[C@@H](CC(C)C)C(=O)N[C@@H](CCCCN)C(=O)N[C@@H](CC(C)C)C(=O)N[C@@H](C)C(=O)NCC(N)=O	HIV-1 TAR hairpin RNA	competitive fluorescence anisotropy		pH 7.4, 20 °C, together with: rhodamine-Rev peptide	0.002 ± 0.0003 µM
FITC-CXCL8	heparan sulfate	binding, fluorescence titration		20 °C	0.128 µM
IGAQLRRMADDV	BCL2L1	yeast display titration	peptide	2 h, pH 8.0, room temperature	0.00059 ± 9e-05 µM
COc1cccc2c1C(=O)c1c(O)c3c(c(O)c1C2=O)C[C@@](O)(C(C)=O)C[C@@H]3O[C@H]1C[C@H](N)[C@H](O)[C@H](C)O1	HIV-1 nucleocapsid-SL3 RNA complex	binding, ESI-FTMS		pH 7.5	29.8 ± 1.9 µM
O=c1c(O)c(-c2ccc(O)c(O)c2)oc2cc(O)cc(O)c12	Kcnh1, C-linker/CNBHD (Mus musculus, UniProt Q60603)	tryptophan FRET			≥ 93 µM and 93 µM
CC(=O)N[C@@H](CC(C)C)C(=O)N[C@@H](CCCCN)C(=O)N[C@@H](CCCCN)C(=O)N[C@@H](CC(C)C)C(=O)N[C@@H](CC(C)C)C(=O)N[C@@H](CCCCN)C(=O)N[C@@H](CC(C)C)C(=O)N[C@@H](CC(C)C)C(=O)N[C@@H](CCCCN)C(=O)N[C@@H](CCCCN)C(=O)N[C@@H](CC(C)C)C(=O)N[C@@H](CC(C)C)C(=O)N[C@@H](CCCCN)C(=O)N[C@@H](Cc1c[nH]c2ccccc12)C(=O)N[C@@H](C)C(=O)NCC(N)=O	HIV-1 RRE hairpin RNA	competitive fluorescence anisotropy		pH 7.4, 20 °C, together with: rhodamine-Rev peptide	0.018 ± 0.002 µM
CN[C@H](CC(C)C)C(=O)N[C@H]1C(=O)N[C@@H](CC(N)=O)C(=O)N[C@H]2C(=O)N[C@H]3C(=O)N[C@H](C(=O)N[C@H](C(=O)O)c4cc(O)cc(O)c4-c4cc3ccc4O)[C@H](O)c3ccc(c(Cl)c3)Oc3cc2cc(c3O[C@@H]2O[C@H](CO)[C@@H](O)[C@H](O)[C@H]2O[C@H]2C[C@](C)(N)[C@H](O)[C@H](C)O2)Oc2ccc(cc2Cl)[C@H]1O	acetyl-Lys-D-Ala-D-Ala	binding, microscale thermophoresis		25 °C	1 ± 0.3 µM
CC(=O)N[C@H]1[C@H](O[C@H]2[C@H](O)[C@@H](NC(C)=O)C(O)O[C@@H]2CO)O[C@H](CO)[C@@H](O[C@@H]2O[C@H](CO)[C@@H](O)[C@H](O)[C@H]2NC(C)=O)[C@@H]1O (some centres unmarked)	Chitinase-3-like protein 2 (CHI3L2, Homo sapiens, UniProt Q15782)	tryptophan fluorescence		pH 7.5	32 ± 4 µM
CCC[C@H](N)C(=O)O	Methyl-accepting chemotaxis protein Tlp3, sensing domain (Campylobacter jejuni, UniProt Q0P864)	binding, thermal shift curve fitting		at Tm sensing domain	3800 ± 1500 µM
NC(=O)C1=CN([C@@H]2O[C@H](COP(=O)(O)OP(=O)(O)OC[C@H]3O[C@@H](n4cnc5c(N)ncnc54)[C@H](O)[C@@H]3O)[C@@H](O)[C@H]2O)C=CC1	Pyrroline-5-carboxylate reductase 3 (PYCR3, Homo sapiens, UniProt Q53H96)			pH 7.5, 26 °C, free enzyme, random bi bi kinetics	31 ± 14 µM
VAQELRRYGDEY	BCL2L1	yeast display titration	peptide	2 h, pH 8.0, room temperature	0.0024 ± 0.0003 µM
O=P(O)(O)OC1[C@H](O)[C@H](OP(=O)(O)O)C(OP(=O)(O)O)[C@H](OP(=O)(O)O)[C@H]1O (some centres unmarked)	3-phosphoinositide-dependent protein kinase 1, PH domain (PDPK1, Homo sapiens, UniProt O15530, T513E)	binding, FRET competition			0.32 ± 0.07 µM
O=c1c(O)c(-c2ccc(O)c(O)c2)oc2cc(O)cc(O)c12	chemokine CCL2, human and mouse	fluorescence quenching		summary over orthologs and variants	3.5 µM
Oc1ccc(Br)cc1C=NCCN1CCOCC1	Albumin (ALB, Bos taurus, UniProt P02769)	binding, UV absorption titration		pH 7.2, 298 K	79.1 µM
B1 (calmodulin C-domain)	rat NaV1.2 IQ motif	FRET biosensor titration		pH 7.4, 22 °C, calcium-saturated, together with: 1 mM CaCl2	0.386 µM
O=C1Nc2ccccc2/C1=N/NC(=O)c1ccccc1O	Ribonucleoside-diphosphate reductase large subunit	binding, fluorescence			6.2 µM
CN[C@H]1C(=O)N[C@@H]2Cc3ccc(cc3)Oc3cc4cc(c3O[C@@H]3O[C@H](C(=O)O)[C@@H](O)[C@H](O)[C@H]3NC(=O)CCCCCCCCC(C)C)Oc3ccc(cc3Cl)[C@@H](O)[C@@H]3NC(=O)[C@H](NC(=O)[C@@H]4NC(=O)[C@@H](NC2=O)c2cc(cc(O)c2Cl)Oc2cc1ccc2O)c1ccc(O)c(c1)-c1c(O[C@H]2O[C@H](CO)[C@@H](O)[C@H](O)[C@@H]2O)cc(O)cc1[C@@H](C(=O)NCCCN(C)C)NC3=O	Polyubiquitin-B, residues 1-75 fusion (UBB, Homo sapiens, UniProt P0CG47)	SPR		25 °C, immobilised ubiquitin fusion	0.14 ± 0.02 µM
Cn1nc(CC(=O)Nc2cc(S(=O)(=O)Nc3cccc(Cl)c3)ccc2O)c2ccccc2c1=O	APOE (Homo sapiens, UniProt P02649, C130R)	SYPRO Orange displacement		pH 7.4, 25 °C	8.9 ± 0.5 µM
Nc1ncnc2c1ncn2-c1ccc(/C=N/NC(=O)c2ccccc2O)cc1	Ribonucleoside-diphosphate reductase large subunit	binding, fluorescence			4 µM
CC1=C(/C=C/C(C)=C/C=C/C(C)=C\CO)C(C)(C)CCC1	Retinol-binding protein 2 (Rbp2, Rattus norvegicus, UniProt P06768)	binding, fluorescence titration		pH 7.4, 25 °C	0.03 ± 0.012 µM
CC[N+](CC)(CC)CC	maxi-KCa channel, rat	fast channel block, blocker, single-channel recording at +30 mV		external application, DTX-I substate, together with: internal DTX-I 460 nM	257 ± 10 µM
O=C(N/N=C/c1cc(-c2ccccc2)ccc1O)c1ccccc1O	Ribonucleoside-diphosphate reductase large subunit	binding, fluorescence		pH 8	36 µM
COc1ccc(-n2nc3c(NC(=O)CCC(=O)NCCOCCOCCNC(=O)CCCCCNC(=O)COc4ccc(/C=C/C5=[N+]6C(=Cc7ccc(-c8cccs8)n7[B-]6(F)F)C=C5)cc4)nc4ccccc4n3c2=O)cc1	ADORA3 (Homo sapiens, UniProt P0DMS8)	NanoBRET saturation binding	HEK293 expressing Nluc-A3	1 h, 37 °C	0.0246 ± 0.0083 µM
O=C(N/N=C/c1cccnc1)c1c(O)ccc2ccccc12	Ribonucleoside-diphosphate reductase large subunit	binding, fluorescence		pH 8	27.4 µM
CC(C)[C@H](N)C(=O)O	Methyl-accepting chemotaxis protein Tlp3 (Campylobacter jejuni, UniProt Q0P864)	binding, ITC		melting temperature	3060 ± 267 µM
[I-].[K+]	SLC4A1 (Homo sapiens, UniProt P02730)	Cl- exchange, inhibitor, 36Cl flux, two-site model	erythrocytes	both sites protonated	810 µM
O=C(O)C(F)(F)C(F)(F)C(F)(F)C(F)(F)C(F)(F)C(F)(F)C(F)(F)C(F)(F)C(F)(F)C(F)(F)C(F)(F)C(F)(F)F	FABP4 (Homo sapiens, UniProt P15090)	ligand displacement, fluorescence			< 1 µM
C[C@H](N)C(=O)N[C@@H](CCCNC(=N)N)C(=O)N[C@H](C(=O)N[C@@H](CCCCN)C(=O)N[C@@H](CCC(N)=O)C(=O)N[C@H](C(=O)N[C@@H](C)C(=O)N[C@@H](CCCNC(=N)N)C(=O)N[C@@H](CCCCN)C(=O)N[C@@H](CO)C(=O)N[C@H](C(=O)NCC(=O)O)[C@@H](C)O)[C@@H](C)O)[C@@H](C)O	Baculoviral IAP repeat-containing protein 5.1-A (birc5.1-a, Xenopus laevis, UniProt Q8JGN5)	ITC		pH 7.2, 25 °C	38.4 ± 5.3 µM
Nc1ncnc2c1ncn2[C@@H]1O[C@H](COP(=O)(O)OP(=O)(O)OP(=O)(O)O)[C@@H](O)[C@H]1O	BCKDK (Homo sapiens, UniProt O14874)	binding, surface plasmon resonance			15 µM

Excerpt of the above:
Molecule	target	test	system	conditions	Kd
Nc1ncnc2c1ncn2-c1ccc(/C=N/NC(=O)c2ccccc2O)cc1	Ribonucleoside-diphosphate reductase large subunit	binding, fluorescence			4 µM
CC(C)[C@H](N)C(=O)O	Methyl-accepting chemotaxis protein Tlp3 (Campylobacter jejuni, UniProt Q0P864)	binding, ITC		melting temperature	3060 ± 267 µM
COc1cccc2c1C(=O)c1c(O)c3c(c(O)c1C2=O)C[C@@](O)(C(C)=O)C[C@@H]3O[C@H]1C[C@H](N)[C@H](O)[C@H](C)O1	HIV-1 nucleocapsid-SL3 RNA complex	binding, ESI-FTMS		pH 7.5	29.8 ± 1.9 µM
